Measurements from different studies.
Each numbered part is a random draw from the data of one study; scales do not carry over between parts. Positions count from the first letter of the parent shown.

Study 1
Target: RNA binding protein fox-1 homolog 2, RRM domain, GST-SBP tag (RBFOX2, Homo sapiens, UniProt O43251-10, residues 100-194)
Technique: RNA Bind-n-Seq
Molecule type: RNA
Sample: in vitro
Tested at: 365 nM
Notes: natural RNA segment, single round, ends assumed
Baseline: no-protein control
Direction: higher = stronger binding
Target sequence (chain): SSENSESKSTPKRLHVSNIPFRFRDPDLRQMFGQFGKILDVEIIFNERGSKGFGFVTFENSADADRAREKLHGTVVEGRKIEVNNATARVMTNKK
Oligonucleotide	RBNS enrichment (R)
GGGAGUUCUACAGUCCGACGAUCUAAGCUUUGGUUCUUUAGGGUGACUGUGGUAAGAAGGAUAUUUAAUCAUGACAUGCACGGACACGUACAUAUUUAACUGAAACAAGUUUUACCAAACAGUAUUUACUCGUUGGAAUUCUCGGGUGCCAA	0.753
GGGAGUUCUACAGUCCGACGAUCCCCACUAAAGGAAAAGCUAAUUCUAUUGCCCCAGGGUGCAUAUUUCUAUGCCUUAUUUGAGUUAUCACUUGGAGGGAGGUGGAAGUUGACUCUCUUUUUCACUGUAGAAUUGGAAUUCUCGGGUGCCAA	0.513
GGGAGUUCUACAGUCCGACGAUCUUUAGAACUGGUAGAGCCUACCUAAGGGUCUCCCCAUCUCCAGGAACUCUCAUGUAGGAUUUUUAAAGGACCGGUAAAGAAUGGUGUUUGAGAAAUGGUGUAUGAUGCCUUGGAAUUCUCGGGUGCCAA	1.95
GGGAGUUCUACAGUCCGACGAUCCGGACCCUCCUCUUUGGGCCUCGUGAGCUUUUUUGCUUAUCAUGUUCCAUUUCGUGCCGCUUUCCCCCUUCAAGAUGCCAUUUGGAGGGUAGGGGAUCUGCUUCCCACUGUGGAAUUCUCGGGUGCCAA	0.294
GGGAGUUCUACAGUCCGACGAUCUUGGAAAGAACAGCGAGUAAGUGCAAGUUGUGCUCCUUCCUUUUCCCUACCUGGUACCCUCCCUGGGUUGAGUAUGAAUGGACAGCUCAGAGACUUUGGGAAGAGAAAUUUGGAAUUCUCGGGUGCCAA	6.04
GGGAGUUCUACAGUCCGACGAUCAAAAGAAUAUUCAUGGCAACGUUGGUCCUUUGAGGGUGGCAUCUCUGGUUUGGAGCUAGGCAGGCUGGCCAUGGGACAGAAAGGGCAGAAAAAAGAUGGAUUUCUGCUGUUGGAAUUCUCGGGUGCCAA	0.846
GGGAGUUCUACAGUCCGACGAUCCUGUAAGAGAAUAGAAUGGCCUUGAGAGUUUAUGAAGGAUUUGCACACUCGUCUUGCCUAGGAAGUGCAAUCUCCUUGUGACUGGAGCACACUGGCAGCCUUCAGGUGUCUGGAAUUCUCGGGUGCCAA	7.38
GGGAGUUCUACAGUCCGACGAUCAAGAGUCAUAUUUUUUGGCUUUGUAGAUAAAGACUUAAAUUUUUGUGCAAAAUAGUGGUGGUAAAGCACACAUCAUUGGACUAUGCAAGUUGAUUUCUAGGAGCAGCACUUGGAAUUCUCGGGUGCCAA	0.51

Study 2
Target: Fragile X messenger ribonucleoprotein 1, C-terminal low-complexity region (Fmr1, Mus musculus, UniProt P35922)
Technique: RNA Bind-n-Seq
Molecule type: RNA
Sample: in vitro
Tested at: 200 nM
Notes: whole 134-nt RNA, ends assumed
Added: 150 mM LiCl
Baseline: input library
Direction: higher = stronger binding
All molecules: 7-deaza-guanosine replaces G
Oligonucleotide	log2 enrichment
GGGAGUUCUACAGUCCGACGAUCUCAAGUCCUGUGCUACACAUCGUAUGUACCGAAUCGGGCCGGGCCGGGGCCGGGAAAGUAUUAUGUUACGCCGUUCGGAUCUGCACUUCCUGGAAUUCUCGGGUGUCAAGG	0.123
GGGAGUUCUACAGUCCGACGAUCCAAGUCCUGUGCUACACAUCGUAUGUACCGAAUCGGAAAAAAAGGUUUUUGGAGGAAAGUAUUAUGUUACGCCGUUCGGAUCUGCACUUCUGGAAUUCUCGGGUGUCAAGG	-1.67
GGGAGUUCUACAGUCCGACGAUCCAAGUCCUGUGCUACACAUCGUAUGUACCGAAUCAAAUUUAAAUUUAAAUUUAAAAAAGUAUUAUGUUACGCCGUUCGGAUCUGCACUUCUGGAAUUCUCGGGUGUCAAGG	-2.17
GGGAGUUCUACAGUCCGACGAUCAGUCCUGUGCUACACAUCGUAUGUACCGAAUCGGGUUUGGGUUUGGGUUUUUUUGGGAAAGUAUUAUGUUACGCCGUUCGGAUCUGCACUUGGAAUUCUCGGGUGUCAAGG	-1.79
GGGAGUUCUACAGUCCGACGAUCCCUGUGCUACACAUCGUAUGUACCGAAUCGGAAAAAAAGGAAAAAAAGGGGAAAAAAAGGAAAGUAUUAUGUUACGCCGUUCGGAUCUGCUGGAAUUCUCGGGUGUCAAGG	-0.668
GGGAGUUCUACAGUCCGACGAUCACCAUGCGGGUGGGCAUCUUUGGGAAGUGGGGCAAGGGGGGGAUAGGGAGGGGGGUAACACUUUGGGAACAGGUGGUCCCAGGUCGUUUCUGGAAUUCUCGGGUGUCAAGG	1.53
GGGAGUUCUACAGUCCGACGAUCUCAGAAGGUCUUUUAAGUCUGACCACCCAGCUUGUCAAGGAAAAACUCUCCACCUGUGAAGCAGAGGACAUCGCCACCUAUGAGCAGAAUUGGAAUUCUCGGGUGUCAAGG	1.54
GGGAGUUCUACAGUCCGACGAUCAGUCCUGUGCUACACAUCGUAUGUACCGAAUCGGGGAAAAAAAGGGGAGGGGUGGGGAAAGUAUUAUGUUACGCCGUUCGGAUCUGCACUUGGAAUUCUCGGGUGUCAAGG	-0.476

Study 3
Target: RING finger protein unkempt homolog, zinc fingers 1-6, GST-SBP tag (UNK, Homo sapiens, UniProt Q9C0B0, residues 30-357)
Technique: RNA Bind-n-Seq
Molecule type: RNA
Sample: in vitro
Tested at: not given
Notes: RNA with constant flanks, human and mouse sites, ends assumed
Baseline: input RNA pool
Direction: higher = stronger binding
Construct (chain): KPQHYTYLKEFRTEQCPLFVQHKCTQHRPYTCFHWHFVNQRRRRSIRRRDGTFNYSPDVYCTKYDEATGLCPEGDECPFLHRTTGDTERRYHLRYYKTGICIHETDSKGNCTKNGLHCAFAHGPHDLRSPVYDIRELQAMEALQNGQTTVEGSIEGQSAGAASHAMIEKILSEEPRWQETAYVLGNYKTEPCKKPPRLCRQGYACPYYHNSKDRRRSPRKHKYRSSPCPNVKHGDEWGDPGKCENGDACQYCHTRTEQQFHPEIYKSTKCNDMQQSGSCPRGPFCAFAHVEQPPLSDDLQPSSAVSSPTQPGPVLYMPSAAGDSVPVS
Oligonucleotide	bound/input enrichment [ratio]
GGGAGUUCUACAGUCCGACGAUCCACAGCCUGAACAUCGUCCACCGUGACAUCAAGCCAGAGAAUCUGCUGGUGUAUGAGCACCAGGAUGGCAGUAAGUCACUCAAGUUGGGUGACUUUGGCCUGGCCACAAUUGUCGACGGCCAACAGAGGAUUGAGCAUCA	0.082
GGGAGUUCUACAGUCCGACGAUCCAGGGUCCUAAGACUAUUGAUCAAAUUCACAAGGAGGCUGAGAUGGAAGAGCACCGAGAACAUAUUAAAGUACAGCAGCUCAUGGCCAAGGGCAGCGACAAACGUCGGGGUGGCCCUCCACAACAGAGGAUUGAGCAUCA	0.171
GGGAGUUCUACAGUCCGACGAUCAAAAACAGGGGUGAGAUAAAGGUCAAUAUUCAAUUUAUGAGGAACAACAUGACAGCAAGCAUGUUUGACUUGUCAAUGAAGGACAAGACGAGAUCACCUUUUGCAAAAUUAAAAGAUAAGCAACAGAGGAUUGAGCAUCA	0.262
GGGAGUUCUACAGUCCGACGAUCCUUAGUUUUGCUGUUUUUGUGGUUUGGUUUUUUUUGUUUUUUGUUUUGGUCAUCCCUAAUAAAGUGUCUGCUAAUUCAAGGCUUAUACAUUAUAUUUAUAGAAUAUAAAUUUGUCAGUGGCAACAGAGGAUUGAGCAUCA	4.55
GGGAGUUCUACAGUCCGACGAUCGAGACCAAGAAGUUACCACCAAAUUCAUGUCACAAAUCUGGGCCAAGCAUCUGUGAGAAACCAACUUCUUCACAACAAAAGGUUCCCACAGAGAAGGCAAAACAUAACAAGAGUUCAGUCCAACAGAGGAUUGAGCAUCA	0.0892
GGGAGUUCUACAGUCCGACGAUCAAUUUGGACCUUACUCAUCCAGUAGAAGAUGGAAUUUUUGAUUCUGGAAAUUUUGAGCAAUUUCUACGGGAGAAGGUUAAAGUCAAUGGCAAAACUGGAAAUCUCGGGAAUGUUGUUCACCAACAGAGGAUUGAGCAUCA	0.262
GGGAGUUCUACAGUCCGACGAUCGACUCCUGUGUCUUGCGUGGAGUCAUGAUUAACAAGGAUGUGACCCAUCCACGUAUGCGGCGCUAUAUCAAGAACCCUCGCAUUGUGCUGCUGGAUUCUUCUCUGGAAUACAAGAAAGGACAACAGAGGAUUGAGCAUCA	0.153
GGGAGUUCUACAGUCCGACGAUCUCCCCACUGAAGCAUGCAUAUGCCGCUGUCACCAAAAGCAAACUCUGUCAUUCAGAGCCUUUCCGUGUCUCCUCUUGCCCGCCCUUGUCCACCACUUUCAACGAUGUCCCCAGGUUGUCCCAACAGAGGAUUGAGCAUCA	0.252

Study 4
Target: CCNE1, cyclin fold, Cln2 fusion (human)
Technique: yeast growth competition, sequencing
Sample: yeast
Notes: strong parent motif
Baseline: not given
Direction: higher = stronger binding
Starting sequence: CCP110 docking peptide (human); EKVKRRLDLDIDG; partner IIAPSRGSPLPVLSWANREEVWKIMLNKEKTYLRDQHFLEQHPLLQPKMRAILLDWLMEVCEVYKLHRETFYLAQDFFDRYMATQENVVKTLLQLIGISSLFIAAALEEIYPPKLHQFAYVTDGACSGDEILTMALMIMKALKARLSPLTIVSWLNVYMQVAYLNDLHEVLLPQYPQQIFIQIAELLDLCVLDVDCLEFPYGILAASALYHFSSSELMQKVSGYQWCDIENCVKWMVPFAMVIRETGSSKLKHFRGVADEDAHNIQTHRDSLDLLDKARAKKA
Variant	normalised enrichment score
K2A	2
K4A	1.06
L9F	6.53
R5A L7A	0.194
R5K L9F	4.6
D8A	1.31
G13A	2.78
L9A	0.243
V3A	1.72
R6A	0.753

Excerpt of the above (study 3):
Oligonucleotide	bound/input enrichment [ratio]
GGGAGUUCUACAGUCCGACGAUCUCCCCACUGAAGCAUGCAUAUGCCGCUGUCACCAAAAGCAAACUCUGUCAUUCAGAGCCUUUCCGUGUCUCCUCUUGCCCGCCCUUGUCCACCACUUUCAACGAUGUCCCCAGGUUGUCCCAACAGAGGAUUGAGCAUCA	0.252
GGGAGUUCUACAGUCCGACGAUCCACAGCCUGAACAUCGUCCACCGUGACAUCAAGCCAGAGAAUCUGCUGGUGUAUGAGCACCAGGAUGGCAGUAAGUCACUCAAGUUGGGUGACUUUGGCCUGGCCACAAUUGUCGACGGCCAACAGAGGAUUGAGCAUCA	0.082
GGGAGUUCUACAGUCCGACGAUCAAAAACAGGGGUGAGAUAAAGGUCAAUAUUCAAUUUAUGAGGAACAACAUGACAGCAAGCAUGUUUGACUUGUCAAUGAAGGACAAGACGAGAUCACCUUUUGCAAAAUUAAAAGAUAAGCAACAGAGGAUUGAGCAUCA	0.262
